Published values from different studies.
A part holds a random share of what one study measured. Substitutions count along the parent as printed.

Block 1 — technique: protein-binding microarray; form: double-stranded DNA, one strand shown; matrix: in vitro; concentration: not given; direction: higher = stronger binding; quantity: E-score
Target: Protein C-ets-1 (ETS1, Homo sapiens, UniProt P14921, residues 1-441, Y397A, full length assumed)
Sequence of UniProt P14921 (whole entry, unmodified, looked up): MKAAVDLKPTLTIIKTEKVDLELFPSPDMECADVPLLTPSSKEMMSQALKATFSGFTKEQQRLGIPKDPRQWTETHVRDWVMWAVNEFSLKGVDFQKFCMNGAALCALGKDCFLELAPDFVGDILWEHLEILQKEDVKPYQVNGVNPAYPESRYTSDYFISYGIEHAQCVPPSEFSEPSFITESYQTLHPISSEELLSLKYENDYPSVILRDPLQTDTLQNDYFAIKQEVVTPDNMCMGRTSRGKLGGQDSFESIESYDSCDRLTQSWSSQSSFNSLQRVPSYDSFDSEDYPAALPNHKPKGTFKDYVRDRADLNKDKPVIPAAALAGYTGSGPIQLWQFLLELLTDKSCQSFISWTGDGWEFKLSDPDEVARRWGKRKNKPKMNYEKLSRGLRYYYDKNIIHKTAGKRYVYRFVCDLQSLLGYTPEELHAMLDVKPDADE
Notes: k-mer, scored over probes, only values ≥0.25
ATGTTTGC: 0.263
ATCAACAA: 0.303
CGGAAACG: 0.389
ACATTTGC: 0.291
TACAAACA: 0.289
ATTTACCG: 0.299
GGCAATCA: 0.279
CACATTAC: 0.304
CACAAAAC: 0.276
ACAAATAT: 0.319
GCCGCCCC: 0.325
ATACTTCC: 0.289
GTGTCGGA: 0.291
ACATGCCA: 0.261
ACCGGATG: 0.404
TACAAAAA: 0.262
GTACAAAA: 0.29
GCCGCAAA: 0.268
CGGGTATA: 0.32
GGATGTCA: 0.314
CGAACAAA: 0.29
CGCTTCCG: 0.409
GTCAAATA: 0.301
ACGACAAC: 0.329
ACCGGAAC: 0.335

Block 2 — target: UBE2E3 UBC core domain (UniProt Q969T4); technique: yeast two-hybrid; matrix: yeast; notes: mostly zero background; reference: not given; direction: higher = stronger interaction; quantity: lacZ reporter activity
Sequence of UniProt Q969T4 (whole entry, looked up): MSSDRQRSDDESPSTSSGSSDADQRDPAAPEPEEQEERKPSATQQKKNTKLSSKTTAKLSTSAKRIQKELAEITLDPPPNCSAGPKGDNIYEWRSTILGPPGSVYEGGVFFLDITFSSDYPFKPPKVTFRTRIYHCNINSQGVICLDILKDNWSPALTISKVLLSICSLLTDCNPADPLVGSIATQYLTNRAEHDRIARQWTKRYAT
B1: RNF166 RING domain (UniProt Q96A37); chain GDSGLEAQYTCPICLEVYHRPVAIGSCGHTFCGECLQPCLQVPSPLCPLCRLPFDPKKVDK
B2: RNF152 RING domain (UniProt Q8N8N0); chain ETLSQDSLLECQICFNYYSPRRRPKLLDCKHTCCSVCLQQMRTSQKDVRCPWCRGVTKLPPGFS
B3: TRIM22 RING domain (UniProt Q8IYM9); chain VKVDIEKEVTCPICLELLTEPLSLDCGHSFCQACITAKIKESVIISRGESSCPVCQTRFQPGNLRP
B4: RNF187 RING domain (UniProt Q5TA31); chain ALPAGPAEAACALCQRAPREPVRADCGHRFCRACVVRFWAEEDGPFPCPECADDCWQRAVEP
B5: TRIM37 RING domain (UniProt O94972); chain SVESIAEVFRCFICMEKLRDARLCPHCSKLCCFSCIRRWLTEQRAQCPHCRAPLQLRELVN
B6: RNF31 RING domain (UniProt Q96EP0); chain AFLRRLLAQECAVCGWALPHNRMQALTSCECTICPDCFRQHFTIALKEKHITDMVCPACGRPDLTDDTQLL
B7: RNF183 RING domain (UniProt Q96D59); chain EQQGRELEAECPVCWNPFNNTFHTPKMLDCCHSFCVECLAHLSLVTPARRRLLCPLCRQPTVLASGQP
B8: RNF2 RING domain (UniProt Q99496); chain SPRSLHSELMCPICLDMLKNTMTTKECLHRFCADCIITALRSGNKECPTCRKKLVSKRSLR
B9: TRIM26 RING domain (UniProt Q12899); chain PLRSLEEEVTCSICLDYLRDPVTIDCGHVFCRSCTTDVRPISGSRPVCPLCKKPFKKENIRP
B1 (RNF166 RING domain): 0
YCEMGSTFQLCKICAENDKDVKIEPCGHLMCTSCLTAWQESDGQGCPFCRCEIKGTEPII (CBLB RING domain (UniProt Q13191)): 0
QVQSRTKIEECVVCSDKKAAVLFQPCGHMCACENCANLMKKCVQCRAVVERRVPFI (MIB1 RING domain (UniProt Q86YT6)): 0
B2 (RNF152 RING domain): 0
B3 (TRIM22 RING domain): 0
KPDKMEETLTCIICQDLLHDCVSLQPCMHTFCAACYSGWMERSSLCPTCRCPVERICKNH (CHFR RING domain (UniProt Q96EP1)): 0
B4 (RNF187 RING domain): 0
B5 (TRIM37 RING domain): 0
B6 (RNF31 RING domain): 0
B7 (RNF183 RING domain): 0
B8 (RNF2 RING domain): 0
B9 (TRIM26 RING domain): 0

Block 3 — target: CREB3L4, bZIP domain (human); technique: DHFR protein complementation; matrix: yeast; reference: wild-type JUN-FOS pair; direction: higher = stronger binding; quantity: binding fitness
Notes: single substitutions, most at no-binding floor
Parent: JUN, bZIP domain (human); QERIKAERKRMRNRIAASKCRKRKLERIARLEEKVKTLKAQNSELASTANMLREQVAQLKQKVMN; partner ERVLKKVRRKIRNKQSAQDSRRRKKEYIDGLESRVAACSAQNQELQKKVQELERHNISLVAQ
R53S: -1.43 natural log
L38G: -1.5 natural log
I28R: -1.33 natural log
L59S: -1.48 natural log
E54G: -1.47 natural log
T37E: -1.42 natural log
A29T: -1.52 natural log
A46N: -1.53 natural log
I28P: -1.48 natural log
A46L: -1.45 natural log
A29E: -1.32 natural log
E33P: -1.49 natural log
L31S: -1.49 natural log
E32M: -1.56 natural log
L38S: -1.47 natural log
A29M: -1.49 natural log
A49D: -1.57 natural log
S43H: -1.58 natural log
K36R: -1.32 natural log
L31W: -1.46 natural log
K36S: -1.36 natural log
Q55P: -1.48 natural log
A40C: -1.5 natural log
E33T: -1.51 natural log
A40W: -1.58 natural log

Block 4 — target: CCND1, cyclin fold, Cln2 fusion (human); technique: yeast growth competition, sequencing; matrix: yeast; notes: weak parent motif; reference: not given; direction: higher = stronger binding; quantity: normalised enrichment score
Parent: PKMYT1 docking peptide (human); SFEPRNLLSLFED
P4Q: 1.19
F2A: 0.576
F2G: 1.01
E3C: 1.08
L8E: -2.52
N6K: 0.796
E12M: 0.783
L7P: 0.59
P4V: 1
S9L: 1.23
S9F: 2.5
D13N: 1.4
P4F: 1.05
P4Y: 0.91
L8V: -0.117
L8P: 0.304
E12T: 1.03
P4K: 1.2
L10T: 0.662
S1F: 0.854
E12H: 0.899
L7G: 1.17
F11P: 0.434
F2C: 0.629
S9V: 0.999

Block 5 — technique: DHFR PCA, deep sequencing; matrix: yeast; together with: (+)-ABA 200 µM; reference: wild-type fitted maximum; direction: higher = stronger binding; quantity: relative binding score
Target: ABI1, truncated, D143A, DHFR fusion (Arabidopsis thaliana)
Notes: methotrexate growth selection, single substitutions
Parent: PYL1, truncated, DHFR fusion (Arabidopsis thaliana); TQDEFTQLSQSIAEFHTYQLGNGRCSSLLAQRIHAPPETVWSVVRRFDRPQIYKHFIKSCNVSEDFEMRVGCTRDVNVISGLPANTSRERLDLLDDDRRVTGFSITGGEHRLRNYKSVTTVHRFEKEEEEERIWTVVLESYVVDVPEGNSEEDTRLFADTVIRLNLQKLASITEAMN
H16P: 13.3%
L20P: 108%
W41Q: 14.9%
D48E: 97.7%
M68Q: 95.7%
L94W: 94.9%
Q19V: 99.2%
Y115K: -14.6%
G148W: 57.5%
I33T: 39.9%
N22D: 100%
L166Y: -0.651%
E109P: 52.2%
E128N: 108%
D48I: -2.43%
S104G: 34.4%
L94A: 34.8%
Q10W: 84.2%
E67P: 99.9%
E64M: 92.9%
L166A: 5.28%
T154H: -15.5%
T120L: 0.981%
G102L: 2.03%
L8F: 111%

Excerpt of the above (block 3):
R53S: -1.43 natural log
L38G: -1.5 natural log
I28R: -1.33 natural log
L59S: -1.48 natural log
E54G: -1.47 natural log
T37E: -1.42 natural log
A29T: -1.52 natural log
A46N: -1.53 natural log
I28P: -1.48 natural log
A46L: -1.45 natural log
A29E: -1.32 natural log
E33P: -1.49 natural log
L31S: -1.49 natural log
E32M: -1.56 natural log
L38S: -1.47 natural log
A29M: -1.49 natural log
A49D: -1.57 natural log
